# Assay results from different studies.
# Compare with care: the assays were run in different laboratories.
# Organism: Acinetobacter baumannii
Compound,test,system,setting,how to read,MIC
CC[C@H](C)CCCCC(=O)N[C@@H](CCN)C(=O)N[C@H](C(=O)N[C@@H](CCN)C(=O)N[C@H]1CCNC(=O)[C@H]([C@@H](C)O)NC(=O)[C@H](CCN)NC(=O)[C@H](CCN)NC(=O)[C@H](CC(C)C)NC(=O)[C@@H](CC(C)C)NC(=O)[C@H](CCN)NC1=O)[C@@H](C)O,broth microdilution,ATCC BAA-1605,,,0.25 µg/mL
N=C(N)NCCC[C@H](NC(=O)[C@H](Cc1c[nH]c2ccccc12)NC(=O)[C@H](CCCNC(=N)N)NC(=O)[C@@H](N)Cc1c[nH]c2ccccc12)C(=O)N[C@@H](Cc1ccccc1)C(=O)N[C@@H](CCC(N)=O)C(=O)N[C@@H](Cc1ccccc1)C(=O)N[C@@H](CCC(N)=O)C(=O)N[C@@H](Cc1ccccc1)C(=O)N[C@@H](CCCCN)C(N)=O,"broth microdilution, optical density",,,,140 µM
CC[C@H](C)[C@H](NC(=O)CNC(=O)[C@H](CC(=O)O)NC(=O)[C@H](CCCNC(=N)N)NC(=O)[C@@H](NC(=O)[C@H](CC(N)=O)NC(=O)[C@H](CCCNC(=N)N)NC(=O)CNC(=O)[C@@H](NC(=O)[C@H](CCCCN)NC(=O)[C@H](CCC(=O)O)NC(=O)[C@@H](NC(=O)[C@H](CCCCN)NC(=O)[C@H](CCCCN)NC(=O)[C@H](Cc1ccccc1)NC(=O)[C@@H](NC(=O)[C@H](CCC(=O)O)NC(=O)[C@H](Cc1c[nH]c2ccccc12)NC(=O)[C@@H](N)CCCNC(=N)N)[C@@H](C)CC)[C@@H](C)CC)C(C)C)C(C)C)C(=O)N[C@H](C(=O)N[C@@H](CCCCN)C(=O)N[C@@H](C)C(=O)NCC(=O)N1CCC[C@H]1C(=O)N[C@@H](C)C(=O)N[C@H](C(=O)N[C@@H](C)C(=O)N[C@H](C(=O)N[C@H](C(=O)NCC(=O)N[C@@H](CCC(N)=O)C(=O)N[C@@H](C)C(=O)N[C@@H](C)C(=O)N[C@H](C(=O)N[C@H](C(=O)N[C@H](C(=O)N[C@@H](CCCCN)C(N)=O)C(C)C)C(C)C)[C@@H](C)O)C(C)C)C(C)C)C(C)C)[C@@H](C)CC,,"KCCM 40203, Mueller-Hinton broth","16 h, 37 °C",growth inhibition over 99%,> 64 µM
CC(C)C[C@@H](NC(=O)CNC(=O)[C@@H](CCCCN)NC(=O)[C@@H](CC(C)C)NC(=O)[C@@H](CCCCN)NC(=O)[C@@H](CCCNC(=N)N)NC(=O)[C@@H](CC(C)C)NC(=O)[C@@H](CC(C)C)NC(=O)[C@@H](CCCNC(=N)N)NC(=O)[C@H](N)CCCNC(=N)N)C(=O)N[C@H](CCCCN)C(=O)N[C@H](CCCCN)C(=O)N[C@H](Cc1ccc(O)cc1)C(=O)N[C@H](CC(C)C)C(=O)N[C@H](Cc1ccc(O)cc1)C(=O)N[C@H](Cc1ccccc1)C(=O)N[C@H](CCCCN)C(=O)N[C@H](CC(C)C)C(=O)N[C@H](CCC(N)=O)C(=O)N[C@H](CC(C)C)C(=O)N[C@H](CC(C)C)C(=O)N[C@H](CCCCN)C(=O)N[C@H](CCCCN)C(N)=O,,"KCCM 40203, Mueller-Hinton broth",24 h,,2 µM
CCCC(=O)N[C@@H](CCCCN)C(=O)N[C@@H](CCCCN)C(=O)N[C@@H](C)C(=O)N[C@@H](CC(C)C)C(=O)N[C@@H](CCCCN)C(=O)N[C@@H](CC(C)C)C(=O)N[C@@H](C)C(=O)N[C@@H](CCCCN)C(=O)N[C@@H](CCCCN)C(=O)N1CCC[C@H]1C(=O)N[C@@H](CC(C)C)C(=O)N[C@@H](CCCCN)C(=O)N[C@@H](CC(C)C)C(=O)N[C@@H](CC(C)C)C(=O)N[C@@H](CCCCN)C(N)=O,broth microdilution,ATCC 17978,"18 h, 37 °C, compound alone",,> 80 µM
CC[C@H](C)[C@H](NC(=O)CNC(=O)[C@H](CC(=O)O)NC(=O)[C@H](CCCNC(=N)N)NC(=O)[C@@H](NC(=O)[C@H](CC(N)=O)NC(=O)[C@H](CCCNC(=N)N)NC(=O)CNC(=O)[C@@H](NC(=O)[C@H](CCCCN)NC(=O)[C@H](CCC(=O)O)NC(=O)[C@@H](NC(=O)[C@H](CCCCN)NC(=O)[C@H](CCCCN)NC(=O)[C@H](Cc1ccccc1)NC(=O)[C@@H](NC(=O)[C@H](CCCCN)NC(=O)[C@H](Cc1c[nH]c2ccccc12)NC(=O)[C@@H](N)CCCNC(=N)N)[C@@H](C)CC)[C@@H](C)CC)C(C)C)C(C)C)C(=O)N[C@H](C(=O)N[C@@H](CCCCN)C(=O)N[C@@H](C)C(=O)NCC(=O)N1CCC[C@H]1C(=O)N[C@@H](C)C(=O)N[C@H](C(=O)N[C@@H](C)C(=O)N[C@@H](C)C(=O)N[C@@H](C)C(=O)NCC(=O)N[C@@H](CCC(N)=O)C(=O)N[C@@H](C)C(=O)N[C@@H](C)C(=O)N[C@H](C(=O)N[C@H](C(=O)N[C@H](C(=O)N[C@@H](CCCCN)C(N)=O)C(C)C)C(C)C)[C@@H](C)O)C(C)C)[C@@H](C)CC,,"KCCM 40203, Mueller-Hinton broth","16 h, 37 °C",growth inhibition over 99%,2 µM
C[C@@H](O)[C@H]1C(=O)N2C(C(=O)O)=C(S[C@@H]3CN[C@H](C(=O)N(C)C)C3)[C@H](C)[C@H]12,,"1188767, multidrug-resistant",,,> 8 µg/mL
CC[C@H](C)[C@H](NC(=O)CNC(=O)[C@H](CC(=O)O)NC(=O)[C@H](CCC(=O)O)NC(=O)[C@@H](NC(=O)[C@H](CC(N)=O)NC(=O)[C@H](CCCNC(=N)N)NC(=O)CNC(=O)[C@@H](NC(=O)[C@H](CCCCN)NC(=O)[C@H](CCC(=O)O)NC(=O)[C@@H](NC(=O)[C@H](CCCCN)NC(=O)[C@H](CCCCN)NC(=O)[C@H](Cc1ccccc1)NC(=O)[C@@H](NC(=O)[C@H](CCCCN)NC(=O)[C@H](Cc1c[nH]c2ccccc12)NC(=O)[C@@H](N)CCCNC(=N)N)[C@@H](C)CC)[C@@H](C)CC)C(C)C)C(C)C)C(=O)N[C@H](C(=O)N[C@@H](CCCCN)C(=O)N[C@@H](C)C(=O)NCC(=O)N1CCC[C@H]1C(=O)N[C@@H](C)C(=O)N[C@H](C(=O)N[C@@H](C)C(=O)N[C@H](C(=O)N[C@H](C(=O)NCC(=O)N[C@@H](CCC(N)=O)C(=O)N[C@@H](C)C(=O)N[C@@H](C)C(=O)N[C@H](C(=O)N[C@H](C(=O)N[C@H](C(=O)N[C@@H](CCCCN)C(N)=O)C(C)C)C(C)C)[C@@H](C)O)C(C)C)C(C)C)C(C)C)[C@@H](C)CC,,"KCCM 40203, Mueller-Hinton broth","16 h, 37 °C",growth inhibition over 99%,32 µM
CC1(C)S[C@@H]2[C@H](NC(=O)[C@H](N)c3ccccc3)C(=O)N2[C@H]1C(=O)O,,carbapenem-resistant clinical isolate,,,16 µg/mL
CC[C@H](C)[C@H](NC(=O)[C@H](CC(C)C)NC(=O)[C@H](CCCNC(=N)N)NC(=O)[C@@H](N)CCCNC(=N)N)C(=O)N[C@@H](CCCNC(=N)N)C(=O)N[C@H](C(=O)N[C@@H](CCCCN)C(=O)N[C@H](C(=O)NCC(=O)N1CCC[C@H]1C(=O)N[C@H](C(=O)N[C@H](C(=O)N[C@@H](Cc1ccc(O)cc1)C(=O)N[C@@H](CCCCN)C(=O)N[C@@H](Cc1ccc(O)cc1)C(=O)N[C@@H](Cc1ccccc1)C(=O)N[C@@H](CCCCN)C(=O)N[C@@H](CCCCN)C(=O)N[C@@H](CCC(N)=O)C(=O)N[C@@H](CC(C)C)C(=O)N[C@@H](CC(C)C)C(=O)N[C@@H](CCCCN)C(=O)N[C@@H](CCCCN)C(N)=O)[C@@H](C)CC)[C@@H](C)CC)[C@@H](C)O)[C@@H](C)O,,"ATCC BAA1605, Mueller-Hinton broth",24 h,,2 µM

# A few entries again:
Compound,test,system,setting,how to read,MIC
CCCC(=O)N[C@@H](CCCCN)C(=O)N[C@@H](CCCCN)C(=O)N[C@@H](C)C(=O)N[C@@H](CC(C)C)C(=O)N[C@@H](CCCCN)C(=O)N[C@@H](CC(C)C)C(=O)N[C@@H](C)C(=O)N[C@@H](CCCCN)C(=O)N[C@@H](CCCCN)C(=O)N1CCC[C@H]1C(=O)N[C@@H](CC(C)C)C(=O)N[C@@H](CCCCN)C(=O)N[C@@H](CC(C)C)C(=O)N[C@@H](CC(C)C)C(=O)N[C@@H](CCCCN)C(N)=O,broth microdilution,ATCC 17978,"18 h, 37 °C, compound alone",,> 80 µM
